# Measurements from different studies.
# Compare with care: the assays were run in different laboratories.
SMILES,organism,assay,system,setting,MIC
CC(C=CC(O)=C1C(=O)CNC1=O)=CC(C)C1OC2(C)OC(C(=O)C(O)C2(C)O)C1C (centres unmarked),Enterococcus,,vancomycin-resistant,,> 100 µM
Oc1c(Br)cc(Br)c2nc3c(C(F)(F)F)cc(C(F)(F)F)cc3nc12,Enterococcus,broth microdilution,VRE 700221,,0.05 µM
C[C@@H]1C(=O)O[C@@H](C)/C=C/C=C\[C@@H](C)[C@@H]2C=C[C@@H]3C[C@@]4(C)O[C@H]4[C@@H](C)[C@H]3[C@@H]2C(=O)C(Cl)(Cl)C1=O,Corynebacterium glutamicum,broth microdilution,DSM 20300,,0.05 µg/mL
Oc1c(Br)cc(Br)c2nc3cc(I)ccc3nc12,Enterococcus,broth microdilution,VRE 700221,,0.78 µM
CC1C=CC=CC(C)C2C=CC3CC(C)(O)C(Br)C(C)C3C2C(=O)C(Cl)(Cl)C(=O)C(C)C(=O)O1 (centres unmarked),Corynebacterium glutamicum,broth microdilution,DSM 20300,,0.1 µg/mL
CN(C)Cc1cc(N(C)C)c2c(c1O)C(=O)C1=C(O)[C@]3(O)C(=O)C(C(N)=O)=C(O)[C@@H](N(C)C)[C@@H]3C[C@@H]1C2,Enterococcus faecalis,"microbial growth, broth dilution",,,2 µg/mL
COC1C(C)C2C(C=CC3C(C)C=CC=CC(C)OC(=O)C(C)C(=O)C(Cl)(Cl)C(=O)C32)CC1(C)O (centres unmarked),Corynebacterium glutamicum,broth microdilution,DSM 20300,,> 6.4 µg/mL
Cc1cc(O)cc2c1C(=O)c1c(cc3oc(=O)cc(-c4ccc(Cl)cc4)c3c1O)C2=O,Klebsiella aerogenes,,,,0.25 µg/mL
COC1C=COC2(C)Oc3c(C)c(O)c4c(c3C2=O)C2=NC3(CCN(CC(C)C)CC3)NC2=C(NC(=O)C(C)=CC=CC(C)C(O)C(C)C(O)C(C)C(OC(=O)Nc2cscn2)C1C)C4=O (centres unmarked),Mycobacteroides abscessus,microbial growth,ATCC19977,,0.026 µM
CC(C)c1ccc(Cn2ccc([C@H](C)[C@](O)(Cn3cnnn3)c3ccc(F)cc3F)n2)cc1,Nakaseomyces glabratus,CLSI broth microdilution,537,,< 0.008 µg/mL
O=C(CCC(=O)[c-]1cccc1)NCCN(CC(=O)Nc1ccc(I)cc1)C(=O)CCc1cn(C[c-]2cccc2)nn1.[C-]#[O+].[C-]#[O+].[C-]#[O+].[Fe+2].[Mn+].c1cc[cH-]c1,"Bacillus subtilis, Staphylococcus aureus",,incl. MRSA,,> 512 µg/mL
Oc1c(Br)cc(Br)c2nc3cc(SC(F)(F)F)ccc3nc12,Enterococcus,broth microdilution,VRE 700221,,0.39 µM
COc1ccc(-c2c(O)oc3c(CC=C(C)C)c(O)cc(O)c3c2=O)cc1,Nakaseomyces glabratus,broth microdilution,clinical isolate,"48 h, 37 °C",> 500 µg/mL
CC(C)CCOC1C(C)C2C(C=CC3C(C)C=CC=CC(C)OC(=O)C(C)C(=O)C(Cl)(Cl)C(=O)C32)CC1(C)O (centres unmarked),Corynebacterium glutamicum,broth microdilution,DSM 20300,,3.2 µg/mL
COCCNCc1cc(N(C)C)c2c(c1O)C(=O)C1=C(O)[C@]3(O)C(=O)C(C(N)=O)=C(O)[C@@H](N(C)C)[C@@H]3C[C@@H]1C2,Enterococcus faecalis,"microbial growth, broth dilution",,,0.5 µg/mL
CC1C=CC=CC(C)C2C=CC3CC(C)(O)C(OCc4ccccc4)C(C)C3C2C(=O)C(Cl)(Cl)C(=O)C(C)C(=O)O1 (centres unmarked),Corynebacterium glutamicum,broth microdilution,DSM 20300,,3.2 µg/mL
CN(C)c1cc(CNC(=O)C(C)(C)C)c(O)c2c1C[C@H]1C[C@H]3[C@H](N(C)C)C(O)=C(C(N)=O)C(=O)[C@@]3(O)C(O)=C1C2=O,Enterococcus faecalis,,"JH2-2(pMV158), Tet L efflux",,2 µg/mL
CCOC1C(C)C2C(C=CC3C(C)C=CC=CC(C)OC(=O)C(C)C(=O)C(Cl)(Cl)C(=O)C32)CC1(C)O (centres unmarked),Corynebacterium glutamicum,broth microdilution,DSM 20300,,> 6.4 µg/mL
CN(C)c1cc(CNC2CCCC2)c(O)c2c1C[C@H]1C[C@H]3[C@H](N(C)C)C(O)=C(C(N)=O)C(=O)[C@@]3(O)C(O)=C1C2=O,Enterococcus faecalis,,"JH2-2(pMV158), Tet L efflux",,1 µg/mL
CC1C=CC=CC(C)C2C=CC3CC(C)(Cl)C(O)C(C)C3C2C(=O)C(Cl)(Cl)C(=O)C(C)C(=O)O1 (centres unmarked),Corynebacterium glutamicum,broth microdilution,DSM 20300,,0.4 µg/mL
CN(C)c1cc(CNCc2ccccc2)c(O)c2c1C[C@H]1C[C@H]3[C@H](N(C)C)C(O)=C(C(N)=O)C(=O)[C@@]3(O)C(O)=C1C2=O,Enterococcus faecalis,,"JH2-2(pMV158), Tet L efflux",,0.5 µg/mL
CCCCCCSCC1OC(OC2C(N)CC(N)C(OC3OC(CN)C(O)CC3N)C2O)C(O)C(N)C1O (centres unmarked),Enterococcus,,vancomycin-resistant,,> 150 µg/mL
C=CCNCc1cc(N(C)C)c2c(c1O)C(=O)C1=C(O)[C@]3(O)C(=O)C(C(N)=O)=C(O)[C@@H](N(C)C)[C@@H]3C[C@@H]1C2,Enterococcus faecalis,,"JH2-2(pMV158), Tet L efflux",,1 µg/mL
CC(C=CC(O)=C1C(=O)CNC1=O)=CC(C)C1OC2(C)OC(C1C)C(O)C1OC12C (centres unmarked),Enterococcus,,vancomycin-resistant,,> 100 µM
CN(C)c1cc(CNC(=O)OCC(C)(C)C)c(O)c2c1C[C@H]1C[C@H]3[C@H](N(C)C)C(O)=C(C(N)=O)C(=O)[C@@]3(O)C(O)=C1C2=O,Enterococcus faecalis,"microbial growth, broth dilution",,,4 µg/mL
CCCCCCCCCCCCCCCCCCCCCCSCC1OC(OC2C(N)CC(N)C(OC3OC(CN)C(O)CC3N)C2O)C(O)C(N)C1O (centres unmarked),Enterococcus,,vancomycin-resistant,,> 150 µg/mL

# Excerpt of the above:
SMILES,organism,assay,system,setting,MIC
CC1C=CC=CC(C)C2C=CC3CC(C)(O)C(Br)C(C)C3C2C(=O)C(Cl)(Cl)C(=O)C(C)C(=O)O1 (centres unmarked),Corynebacterium glutamicum,broth microdilution,DSM 20300,,0.1 µg/mL
CN(C)Cc1cc(N(C)C)c2c(c1O)C(=O)C1=C(O)[C@]3(O)C(=O)C(C(N)=O)=C(O)[C@@H](N(C)C)[C@@H]3C[C@@H]1C2,Enterococcus faecalis,"microbial growth, broth dilution",,,2 µg/mL
